Results from different studies.
Each numbered part is a random draw from the data of one study; scales do not carry over between parts.

Set 1 — technique: protein binding microarray; form: double-stranded DNA, one strand shown; medium: in vitro; tested at: not given; relative to: not given; direction: higher = stronger binding
Target: Histone acetyltransferase KAT6A, both winged helices, GST fusion (KAT6A, Homo sapiens, UniProt Q92794, residues 1-181)
Setting: 8-mer, flanks averaged, mean of 2 arrays, mostly near background
Target sequence (chain): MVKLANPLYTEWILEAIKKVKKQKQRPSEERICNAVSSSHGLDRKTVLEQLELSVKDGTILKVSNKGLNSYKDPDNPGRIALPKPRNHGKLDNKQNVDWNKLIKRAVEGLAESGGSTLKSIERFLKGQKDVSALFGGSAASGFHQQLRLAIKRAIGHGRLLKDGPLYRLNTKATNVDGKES
| Sequence | E-score |
| --- | --- |
| ACGATGTA | -0.0237 |
| AGGGAGTA | -0.228 |
| AGACACTC | -0.168 |
| ATGTCTGA | -0.0106 |
| GTGTCATA | -0.0318 |
| CGAGTCCG | 0.273 |
| ATACCGAA | 0.142 |
| ACGTCATA | 0.0303 |
| GCCGACCC | 0.257 |
| GACTAGAC | -0.0917 |
| CCCTTATC | -0.149 |
| AAACAGCC | -0.13 |
| GTCTCTGA | -0.0611 |
| CGCCTGAC | 0.0645 |
| AACTGGCG | 0.0319 |
| CCGACGGA | 0.354 |
| CTTCGTAA | 0.00624 |
| AAACGCTA | 0.0822 |
| TCATGGAA | -0.0579 |
| AACCGCTT | 0.205 |
| CTCTTCCA | -0.072 |

Set 2 — technique: RNA Bind-n-Seq; form: RNA; medium: in vitro; tested at: 1 µM; setting: whole 134-nt RNA, ends assumed; added: 150 mM KCl; relative to: input library; direction: higher = stronger binding
Target: Ras GTPase-activating protein-binding protein 1, C-terminal RGG region (G3BP1, Homo sapiens, UniProt Q13283)
Chain of UniProt Q13283 (whole entry, looked up): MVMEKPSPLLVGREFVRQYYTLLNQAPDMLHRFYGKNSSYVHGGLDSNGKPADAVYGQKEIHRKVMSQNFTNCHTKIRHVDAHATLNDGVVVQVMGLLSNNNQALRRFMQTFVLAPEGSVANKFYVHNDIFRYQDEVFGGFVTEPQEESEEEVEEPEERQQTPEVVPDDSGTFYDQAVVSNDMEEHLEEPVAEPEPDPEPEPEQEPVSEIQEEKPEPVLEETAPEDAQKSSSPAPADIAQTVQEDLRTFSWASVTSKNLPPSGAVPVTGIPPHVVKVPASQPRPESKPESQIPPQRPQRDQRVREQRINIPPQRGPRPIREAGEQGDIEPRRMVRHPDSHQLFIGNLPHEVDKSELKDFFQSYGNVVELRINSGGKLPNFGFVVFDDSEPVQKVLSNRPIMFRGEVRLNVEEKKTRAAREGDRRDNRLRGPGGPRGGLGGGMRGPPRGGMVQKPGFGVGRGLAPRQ
All sequences stand within: GGGAGUUCUACAGUCCGACGAUC … UGGAAUUCUCGGGUGUCAAGG
| Sequence | log2 enrichment |
| --- | --- |
| GCAGGAAGUAAAAACAAAUGGAAAUGCUUCGGAUAGUGGCAGGGGUGGGGGUAAAUAAGGAAAGGGUGGGAUGGGAGUGGGUAAAGAGUU | 1.31 |
| CUGUGCUACACAUCGUAUGUACCGAAUCGGGUUUUUUUGGGAAAAAAAGGGUUUUUUUGGGAAAGUAUUAUGUUACGCCGUUCGGAUCUG | -2.15 |
| GCAGGAAGUAAAAACAAAUGGAAAUGCUUCGGAUAGUGGCAGGGGUGGGGGUUGCUAAGGAAAGAGUGGGAUGGGAGUGGGUAAAGAGUU | 1.1 |
| CCUGUGCUACACAUCGUAUGUACCGAAUCGGGGAAAAAAGGGAAAAAAGGGGAAAAAAGGAAAGUAUUAUGUUACGCCGUUCGGAUCUGC | -1.65 |
| AGUCCUGUGCUACACAUCGUAUGUACCGAAUCGGGGUGGGGAAAAAGGGGAAAGGGGAAAGUAUUAUGUUACGCCGUUCGGAUCUGCACU | 2.53 |
| UGGGAGGUGGAUUUUGUUUAUUUUUUUAGCUCAUUUCCCGGGGUGGGAAUUUUUUUUUAAUAUGUGUCAUGAAUAAAGUUGUUUUUGAAA | 3.23 |
| CACAGACAACACGCACCCACACAGACACAGAGGGAAGGGGUUGGGAUGGGGACAGGGUGCACAGCAGGGUGGGGUAGGACCCCAGCCCCU | -0.984 |
| ACCAUGCAGGUGGGCAUCUUUGGGAAGUGGGGCAAGGGGGGGAUAGGGAGGGGGGUAACACUUUGGUAACAGGUGGUCCCAGGUCGUUUC | 1.97 |
| UCAAGUCCUGUGCUACACAUCGUAUGUACCGAAUCGGGUUUGGGUGGGAAAGGGAAAGUAUUAUGUUACGCCGUUCGGAUCUGCACUUCC | 1.86 |
| AAUAACUGACGCUGCAUUUAAUUUUUUUGCCAGUUUAAAAUGUUUGUGUGUUUUUAUAGAUGAUUUUAACUGGUACAUAUUUUGAGUUAA | -2.15 |
| ACCAUGCAGGUGGGCAUCUUUGGGAAGUGGGGCAAGGGGGGGAUAGGCAGGGGGGUAACACUUUGGGAACAGGUGGUCCCAGGUCGUUUC | 2.27 |
| GCAGGAAGUAAAAACAAAUGGAAAUAAAUCGGAUAGUGGCAGGGGUGGGGGUUGCUAAGGAAAGGGUGGGAUGGGAGUGGGUAAAGAGUU | 2.06 |
| UGUCUGCGGACCUGGUUUCAGCGCUGGUGGGACUGCAGCCGGAGGUCAGCCCAGCAGAGACUGCAGCUGGAGAGGGCAGUGCAACACCAC | -1.2 |
| CUGUGCUACACAUCGUAUGUACCGAAUCGGGUUUUUUUGGGUUUUUUUGGGUUUUUUUGGGGAAAGUAUUAUGUUACGCCGUUCGGAUCU | -1.01 |

Set 3 — technique: RNA Bind-n-Seq; form: RNA; medium: in vitro; tested at: not given; setting: RNA with constant flanks, ends assumed; relative to: input RNA pool; direction: higher = stronger binding
Target: RING finger protein unkempt homolog, zinc fingers 1-6, GST-SBP tag (UNK, Homo sapiens, UniProt Q9C0B0, residues 30-357)
Chain of UniProt Q9C0B0 (30-357, looked up): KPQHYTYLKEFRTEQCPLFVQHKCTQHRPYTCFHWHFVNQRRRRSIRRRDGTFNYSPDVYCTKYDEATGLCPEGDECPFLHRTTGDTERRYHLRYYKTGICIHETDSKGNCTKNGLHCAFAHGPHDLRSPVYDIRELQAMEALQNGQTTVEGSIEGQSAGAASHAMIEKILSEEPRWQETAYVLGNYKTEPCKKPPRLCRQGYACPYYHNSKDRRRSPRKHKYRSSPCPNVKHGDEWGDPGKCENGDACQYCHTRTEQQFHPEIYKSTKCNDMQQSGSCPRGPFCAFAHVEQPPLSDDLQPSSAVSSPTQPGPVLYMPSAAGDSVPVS
All sequences stand within: GGGAGUUCUACAGUCCGACGAUC … CAACAGAGGAUUGAGCAUCA
| Sequence | bound/input enrichment |
| --- | --- |
| AAUGCAGUUAUAUUUGGACCAGAAGGGACACCCUUUGAAGAUGGUACUUUUAAACCCGUAACCGAAUUUUCUGAAGAAUAUCCAAAUAAACCACCAACCGUUAGGUUUUUAUCCAAAAUG | 0.816 ratio |
| GAUGUAACUUAAGUGACUGUGAUCCUUUGUCUACCUUUCAGGAUCCCAUCAAAUGGGAUUCCGUUGCCCGAAAGAUACUUGACAGUCUGAAGGCACAGGUGAUAAGAUUUUGUUCUCUGU | 0.106 ratio |
| AUGGACCUGCAGCUCCACAUUUACCAGCUGAAAACCCUGAUCAGGAUGGUAAAGAAAACCUACCGAGAUUUCCGAUUGCAAGGGGUCCUGGAUUCCACCUUAAACAGCAAGACCUAUGAG | 0.221 ratio |
| GAUGAGCAUUCUUAUUUUUUGUUUUGUUUGCCCCAUUUCCUUUUGUGUUUUUAUAGUCUACCGCAUUUUAAAACUGCUGAUGUUGUUUGCAUUAUUUACAGGCUAAAAACUUAGUAGCAU | 1.74 ratio |
| CCCAUCAUUGAGUCUUCCUCAAAUAUCAAAUUUGGAUGUUUUCAAUGGUACUAUCCUGAAUCCGCUUUCCAGUUCAAAGAUGCAGGGCUAAGUAUCUUCAACAAUACAUGGAGUAACAUU | 0.197 ratio |
| UAUCACAAUGUAUACUCUCGAGAUCCUAAUUAUCUGAAUUUGUUCAUUAUCGUAAUGGAGAACCGAAAUCUCCACAGUCCUGAAUAUCUGGAAAUGGCUUUGCCAUUAUUUUGCAAAGCG | 0.188 ratio |
| AAAGAACUGAUAGGAAAAAAAAUCCUCUGUCACUUUUUUUUUUAAAAAAAGAAAACCUUGUUCCGAUACAAAGUCUUGUAUAAAUUAUAAUUUUUAUUUAAUAAACCUAAAAUGCUCUGU | 19.1 ratio |
| CGGAAAGCCACCAAGUGGGCACAGUCAGGCCUCAUCGUCAGCAUUGGGCCACCUGCCGAGUCUAUCAACCCAGAGACUGUGAGUGGACUAUCCACAGGCGACAAAAAGAAAACUGCCCAA | 0.124 ratio |
| GUAAUGUGUCCAUUUAACUUAUUUUUAUAGCACUUAGGCAAUAUUGUUAGUCUUAGUGAGCCGUUCACAUCUUUACAAAAGCAUGCUCUCCCUAUCCAUUGGGCCCACAAUAACACUCUC | 5.54 ratio |
| GGGCAGACUAAGACAGUCAGAGUGUUCCGCUUUAUAACUGAUAACACUGUAGAAGAAAGAACCGCCGAACGUGCUGAGAUGAAACUCAGACUGGAUUCAAUAGUCAUUCAACAAGGGAGG | 0.52 ratio |
| GACAUUCUUCUCCUUGUUGUCCGAUUGGCUGUGCUGGUGGCUGUCACCCUCACGGUCCCAGCCGUUAUUUUCCCUAUCCGGAGUUCCGUCACUCACUUACUGUGUCCCACAAAAGAGUUC | 0.256 ratio |

Set 4 — technique: RNA Bind-n-Seq; form: RNA; medium: in vitro; tested at: 365 nM; relative to: no-protein control; direction: higher = stronger binding
Target: RNA binding protein fox-1 homolog 2, RRM domain, GST-SBP tag (RBFOX2, Homo sapiens, UniProt O43251-10, residues 100-194)
Setting: natural RNA segment, single round, ends assumed
All sequences stand within: GGGAGUUCUACAGUCCGACGAUC … UGGAAUUCUCGGGUGCCAA
Target sequence (chain): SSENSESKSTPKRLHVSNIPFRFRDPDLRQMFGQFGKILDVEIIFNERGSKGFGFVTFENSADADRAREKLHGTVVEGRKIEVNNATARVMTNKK
| Sequence | RBNS enrichment (R) |
| --- | --- |
| AACUGUUUGAUUAUAGAAAAGACCCCAGACUCAGAGGGAAGGCUCUCUGGUCUACCUGAGAUCUAUAUGGAGCUUAAAGGAGGGUGAAUAAGAUUAAUGACCUGAAUUGA | 0.376 |
| AACCCACUGAAGGGCUUCAGGUUUCAUUUUUUAAUCUUCUCAAAAACCAGAAAAAAAAAAUCAGAAAAGUGUUCUCAGGUUCACCUUACGUCCUGCCUACAACUCCCGAG | 0.614 |
| AGCUGGGUAGCCUCUCUGAGCUGGUUUCCUGCCCCAAAGGCUGGCUUCCACCAUCCAGGUGCACCACUGAAGUGAGGACACACCGGAGCCAGGCGCCUGCUCAUGUUGAA | 0.175 |
| CCAUCAUUGAGACCUUCAUCUACAGUUUCCAAACAGUCAUUGGAAAACGCACGACAGUUACCCAGAAGGUUUUAUUUCUCAGCAGAUUUGUAGAAUGAAGUAUAACGUCA | 1.42 |
| GCUUUGUAAAAGCUUUGGUGUUAAGAGUCAAUAUUUUUUGGCUUUGUAGAUAAAGACUUAAAUUUUUGUGCAACAUAGUGGUGUUAAAGCACACAUCCAUUGGACUAUGC | 0.356 |
| AAUAUCAGCGCACACACAUAGCUGCAUGUUCUGCUCGUGUAGUUUAAAAAAAAAAAGACAAAACAGUGACAUGAAAUAAAAAAUAAAAAUUGAAAAGGGAUGUAUUUCUA | 2.05 |
| UGUAAUGGUAUAAUGCCCUUCCAUCACACAACAGGACACCACCCCAGUUUUGUUUUCUGGGUUUCUUCCCCCUUUGUAGGAAUCAGAUACCUUUUGUAGAAAAAAAUGGC | 0.821 |
| GCCUGGAUGAGUUGCACCUUGCAUCUUGAGCAUGCAUUUCUCACAAUAAUUAUUAAGCUGUGUGAUAAUUUCUGCUUUCAGGACACUCAUCCAUUAUCUUGGCUGUGAGC | 3.79 |
| CUCUAACAGCAAAAUAAUUAAAGUGCCAUAGUUUCUCAAGUGACUAAAGUAGUUAUUAAAAUCAAGCACUUGAUACUAAUUUGAAGUGUGUUUAAAAGUAAAUGAUUUGG | 0.597 |
| UGUAAAUAAUAUGUACUUUGGGUUUUUAACACCGCAUGUAAAGUCAAAAUAAAAUAUCCAAGUCAUUACAUCCUGCCUUUUGAUGUUAACAGGUUUGCACUGCGUCAUGC | 30.4 |
| CAGAAGCCGAACAAGUGAGAGUAAUGUAUAAUUCUCUCAUUUUUUUGUAGGUCUCUAAUAAAGAACUUUAUGUGGUCCUUCUACCUCUUGCUGUGAAGAACAGAGCCCAC | 0.275 |
| CAACCGACAGCAAACAGCUUUCUCCGGCCUCAGGGCAGAAAAAGGGAAUGGCAGGGAGUAAGAGGCGCUGGGCUCGGAGCCUGUUUCCAAGAAGGAAUUGGUUGUCAUCU | 0.368 |

Mixed results
| Molecule | target | test | test system | setting | scale | measurement | value |
| --- | --- | --- | --- | --- | --- | --- | --- |
| PhoQ, residues 284 288 289 292 302 303 ALAMYF | PhoP, residues 12 14 15 18 19 GQAIL (Escherichia coli, UniProt P23836) | Sort-seq, item: YFP reporter | E. coli | PhoQ-PhoP variant library, added: 10 µM Mg2+ | relative to: high Mg2+ state, higher = stronger signaling | fold induction | 1.93 |

Some of these lines once more (set 1):
| Sequence | E-score |
| --- | --- |
| AGGGAGTA | -0.228 |
| AAACAGCC | -0.13 |
| CCGACGGA | 0.354 |
| GTCTCTGA | -0.0611 |
| CTCTTCCA | -0.072 |
| AACTGGCG | 0.0319 |
| ATACCGAA | 0.142 |
